{"data": "Measurements from different studies", "note": "Each numbered part is a random draw from the data of one study; scales do not carry over between parts. pEC50: −log10 of the molar value."}
{"data": "Series 1", "target": "Sal-like protein 4, full length isoform B (SALL4, Homo sapiens, UniProt Q9UJQ4-2, residues 1-616)", "technique": "universal PBM", "molecule type": "double-stranded DNA, one strand shown", "matrix": "in vitro", "tested at": "not given", "notes": "8-mer, flanks averaged, mean of replicates", "reading": "higher = stronger binding"}
{"Strand": "GCGGTCCC", "E-score": -0.357}
{"Strand": "CCCACAAA", "E-score": 0.0949}
{"Strand": "GCATGGAC", "E-score": -0.226}
{"Strand": "CGTGCTTC", "E-score": -0.289}
{"Strand": "ACTCCATC", "E-score": 0.0713}
{"Strand": "AGCTCTAC", "E-score": -0.168}
{"Strand": "CGCTTTAA", "E-score": 0.0432}
{"Strand": "AGCTACTA", "E-score": 0.146}
{"data": "Series 2", "target": "Interferon regulatory factor 5, full length, phosphomimetic (IRF5, Homo sapiens, UniProt Q13568-2, residues 1-514, S451D/S453D/S456D/S462D)", "technique": "protein-binding microarray", "molecule type": "double-stranded DNA, one strand shown", "matrix": "in vitro", "tested at": "940 nM top", "notes": "60-bp whole probe", "with": "salmon DNA 0.4 mg/ml", "baseline": "random background probes", "reading": "higher = stronger binding", "shared flanks, not repeated": "GCCTAGCAC … GTCTTGATTCGCTTGACGCTGCTG"}
{"Strand": "TTAGGTATCATACTGCTTTAGTGCTAG", "fitted relative affinity": "1.9 z-score"}
{"Strand": "TCATGTTTGTCCCTATTACTGTGCTAG", "fitted relative affinity": "1.24 z-score"}
{"Strand": "GACGAACTGGGCTTTCGAGACGTGCTA", "fitted relative affinity": "-0.194 z-score"}
{"Strand": "GAATCTCTCATGTTACATTTGTGCTAG", "fitted relative affinity": "1.3 z-score"}
{"Strand": "TTAGATATCGGGACTGGATGAGTGCTA", "fitted relative affinity": "-0.292 z-score"}
{"Strand": "TTAGATCTCAGTATCGATTCGTGCTAG", "fitted relative affinity": "4.51 z-score"}
{"Strand": "AACGGACTGGGTTTCGGGACGTGCTAG", "fitted relative affinity": "2.27 z-score"}
{"Strand": "TTCACTTTCCAAAACATGAAGTGCTAG", "fitted relative affinity": "0.531 z-score"}
{"data": "Series 3", "target": "RNA binding protein fox-1 homolog 2, RRM domain, GST-SBP tag (RBFOX2, Homo sapiens, UniProt O43251-10, residues 100-194)", "technique": "RNA Bind-n-Seq", "molecule type": "RNA", "matrix": "in vitro", "tested at": "365 nM", "notes": "natural RNA segment, single round, ends assumed", "baseline": "no-protein control", "reading": "higher = stronger binding", "shared flanks, not repeated": "GGGAGUUCUACAGUCCGACGAUC … UGGAAUUCUCGGGUGCCAA", "Residues (chain)": "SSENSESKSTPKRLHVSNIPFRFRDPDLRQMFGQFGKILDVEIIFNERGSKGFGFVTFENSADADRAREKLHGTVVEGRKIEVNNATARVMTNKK"}
{"Strand": "UCCCAAGUCCGUGAUUUCAGUUUUUCUUUUAUGGUUUCAUUGUUUGUAGUUGCCUUUGGGUUUUUGUCUUUGUUUUUCUGUCUUUUGUUAAAUCUGCUCUUAAAGUUCAC", "RBNS enrichment (R)": 16.3}
{"Strand": "AGCUCAGAGAAAGUUCCAUUUCCGUUCCAGAGGGAAGGGAACCUCCCUAGGUCCUUCCCUGGCUUGUUAUAACGCAAAGCUUGGUUGUUUAUGCAACUCUAUCUUAAGAA", "RBNS enrichment (R)": 0.437}
{"Strand": "UUUAACGUAGCUCGAAUCUGGUACACGCAUAAAGUUUUACGGUCAAGUCCUUUUCUUUCUUCUUGAGAGACCUAAAGAGAUACUGUAGCUUGUUUUUCUGAUGGCAAAUG", "RBNS enrichment (R)": 0.355}
{"Strand": "UGUAUUGCCAGACAGCUCUCUUUUGGUUCCCAUUCCAAAUGUGCUGCUGUCCUUCUUUGCAUUUCACAAUAUCAAAGAAACCACCACCCUUCUUCCUAACAGCAUUUUAU", "RBNS enrichment (R)": 1.14}
{"Strand": "UUUACAAGCUUUAUAAUUUUAUGAUUUUUUAAUCGUGUUUUGUCACAGACUUCCCUAGUGUUUGUACUACACGUAGUCAGAAGCGAGUGUCCUUUUCUUUUGCUUCAGGC", "RBNS enrichment (R)": 0.577}
{"Strand": "GGAGUGUGUAAGGUAUAUGUUUUAUAAUUCAUAACCAUAGCCUCGAUCAUCAAGAAAUACUUUCGAAAUUUCAUUUUCCUUCAGAAUAUCUUAAGAGUGCUAAAUUUUUA", "RBNS enrichment (R)": 0.359}
{"Strand": "AAAUAGAUGAGCACAUUUAUAACUCUAAAUUAGACUUUCUAUCAAAUGGGACCAAACAUAUGGAAGGGGCUGCUGUCCUGCCUCAAUUUAGCCAAGACUUGUCUUGUCUC", "RBNS enrichment (R)": 0.287}
{"Strand": "GAAGGGUCGUGGUCCAGAGCUCCUUGGGUCCCAUGAAACUGCCCUGUUCUCUGUGGCUGUGGACAGUCGUUGCCAGCUGCAUCUGUUGCCCUCACGGGGGAGUGUUCCUG", "RBNS enrichment (R)": 0.243}
{"data": "Series 4", "target": "Replicase polyprotein 1ab, nsp13 helicase (rep, Severe acute respiratory syndrome coronavirus 2, UniProt P0DTD1)", "mode": "inhibitor", "tested at": "20 µM"}
{"Structure (SMILES)": "Oc1cc(O)cc(O)c1", "inhibition [%]": 5.56}
{"Structure (SMILES)": "CC1(c2ccccc2)OC(C(=O)O)=CC1=O (centres unmarked)", "inhibition [%]": 2.94}
{"Structure (SMILES)": "O=C1C=CC(=O)C2=C1C1c3ccccc3C2c2ccccc21", "inhibition [%]": 99.3}
{"Structure (SMILES)": "Oc1ccc(CC2NCCc3cc(O)c(O)cc32)cc1 (centres unmarked)", "inhibition [%]": 0.61}
{"Structure (SMILES)": "NCC[C@H](O)C(=O)N[C@@H]1C[C@H](N)[C@@H](O[C@H]2O[C@H](CN)[C@@H](O)[C@H](O)[C@H]2O)[C@H](O)[C@H]1O[C@H]1O[C@H](CO)[C@@H](O)[C@H](N)[C@H]1O", "inhibition [%]": 0.91}
{"Structure (SMILES)": "CO[C@@H]1[C@H](OC(=O)/C=C/C=C/C=C/C=C/C(=O)O)CC[C@]2(CO2)[C@H]1[C@@]1(C)O[C@@H]1CC=C(C)C", "inhibition [%]": 50.5}
{"Structure (SMILES)": "C[C@]12CCC(=NOCCN)C[C@@H]1C(=O)C[C@@H]1[C@@H]2CC[C@]2(C)C(=O)CC[C@@H]12", "inhibition [%]": -4.39}
{"Structure (SMILES)": "CC(C)(N)c1ncc(-c2ccc(OC(F)(F)F)cc2)[nH]1", "inhibition [%]": 5.18}
{"Structure (SMILES)": "COc1ccc(Cl)cc1[C@]1(F)C(=O)Nc2cc(C(F)(F)F)ccc21", "inhibition [%]": 4.15}
{"Structure (SMILES)": "CC[C@@]1(O)C(=O)OCc2c1cc1n(c2=O)Cc2cc3ccccc3nc2-1", "inhibition [%]": 1.11}
{"Structure (SMILES)": "O=C(CN1C2=NCCN2c2ccccc21)c1ccc(-c2ccccc2)cc1", "inhibition [%]": 14.3}
{"Structure (SMILES)": "CCNC(=O)CC[C@H](N)C(=O)O", "inhibition [%]": 1.59}
{"Structure (SMILES)": "Cn1cc(-c2[nH]c3cc(NC(=O)[C@H](N)C4CCCCC4)cc4c3c2C=NNC4=O)cn1", "inhibition [%]": 56.1}
{"Structure (SMILES)": "Cn1c(NCCN(CCO)CCCc2ccc([N+](=O)[O-])cc2)cc(=O)n(C)c1=O", "inhibition [%]": 6.15}
{"Structure (SMILES)": "CCN(CC)Cc1ccc2cc(COC(=O)Nc3ccc(C(=O)NO)cc3)ccc2c1", "inhibition [%]": 9.11}
{"Structure (SMILES)": "NC(=O)C[S+]([O-])C(c1ccccc1)c1ccccc1 (centres unmarked)", "inhibition [%]": 2.71}
{"Structure (SMILES)": "O=c1c2ccccc2nc2n1CCc1c-2[nH]c2ccccc12", "inhibition [%]": 0.5}
{"Structure (SMILES)": "O=C(OCCN1CCOCC1)C1(c2ccccc2)CCCCC1", "inhibition [%]": -5.14}
{"Structure (SMILES)": "NC(=O)c1cccc(-c2cccc(OC(=O)NC3CCCCC3)c2)c1", "inhibition [%]": -1.58}
{"Structure (SMILES)": "C=CC(=O)Nc1ccc2ncnc(Nc3ccc(OCc4cccc(F)c4)c(Cl)c3)c2c1", "inhibition [%]": 4.17}
{"Structure (SMILES)": "Cc1nc(=O)c2cc(CN(C)c3ccc(C(=O)N[C@@H](CCC(=O)O)C(=O)O)s3)ccc2[nH]1", "inhibition [%]": 0.49}
{"Structure (SMILES)": "NCCCC(N)(C(=O)O)C(F)F (centres unmarked)", "inhibition [%]": -3.04}
{"Structure (SMILES)": "CC[N+](CC)(CC)CC(=O)Nc1c(C)cccc1C", "inhibition [%]": 2.42}
{"Structure (SMILES)": "Cc1ncc(C)n2nc([C@@H]3C[C@H]3c3nc4c5cccnc5ccn4c3C)nc12", "inhibition [%]": 1.27}
{"Structure (SMILES)": "CO[C@@H]1[C@H](O)[C@@H](CO)O[C@H]1n1cnc2c(NC3CCCCC3)ncnc21", "inhibition [%]": 4.79}
{"data": "Other studies, line by line"}
{"SMILES": "O=P1(N(CCCl)CCCl)NCCCO1 (centres unmarked)", "tested on": "HEK-293T", "test system": "VSV pseudotyped with SARS-CoV-2 spike", "setting": "10 µM, 16 h", "quantity": "pseudovirus infection", "value": "89.3%"}
{"SMILES": "CCC(C)SSc1ncc[nH]1 (centres unmarked)", "tested on": "Replicase polyprotein 1ab, main protease (rep, Severe acute respiratory syndrome coronavirus 2, UniProt P0DTD1)", "test": "enzyme activity, inhibitor", "setting": "20 µM", "quantity": "inhibition", "value": "7.75%"}
{"SMILES": "NCCc1ccc(O)c(O)c1", "tested on": "HEK-293T", "test system": "VSV pseudotyped with SARS-CoV-2 spike", "setting": "10 µM, 16 h", "quantity": "pseudovirus infection", "value": "89.7%"}
{"SMILES": "CC(C)C[C@@H](C=O)NC(=O)[C@H](CC(C)C)NC(=O)[C@H](CC(C)C)NC(=O)OCc1ccccc1", "tested on": "SARS-CoV-2", "test": "viral RNA", "test system": "Vero E6", "quantity": "pEC50", "value": 6.92}
{"note": "For quick reference, copied from above (series 4):"}
{"Structure (SMILES)": "CC1(c2ccccc2)OC(C(=O)O)=CC1=O (centres unmarked)", "inhibition [%]": 2.94}
{"Structure (SMILES)": "O=C1C=CC(=O)C2=C1C1c3ccccc3C2c2ccccc21", "inhibition [%]": 99.3}
{"Structure (SMILES)": "Oc1ccc(CC2NCCc3cc(O)c(O)cc32)cc1 (centres unmarked)", "inhibition [%]": 0.61}
{"Structure (SMILES)": "NCC[C@H](O)C(=O)N[C@@H]1C[C@H](N)[C@@H](O[C@H]2O[C@H](CN)[C@@H](O)[C@H](O)[C@H]2O)[C@H](O)[C@H]1O[C@H]1O[C@H](CO)[C@@H](O)[C@H](N)[C@H]1O", "inhibition [%]": 0.91}
{"Structure (SMILES)": "CO[C@@H]1[C@H](OC(=O)/C=C/C=C/C=C/C=C/C(=O)O)CC[C@]2(CO2)[C@H]1[C@@]1(C)O[C@@H]1CC=C(C)C", "inhibition [%]": 50.5}
{"Structure (SMILES)": "C[C@]12CCC(=NOCCN)C[C@@H]1C(=O)C[C@@H]1[C@@H]2CC[C@]2(C)C(=O)CC[C@@H]12", "inhibition [%]": -4.39}
